Published values pooled from the literature.
Compare with care: the assays were run in different laboratories. Several values in a cell are separate wells, animals, samples, runs or records. ± gives the spread as reported. In brackets after ≈: the same amount, converted by molar mass.

CNC(C)C1CCC(N)C(OC2C(N)CC(N)C(OC3OCC(C)(O)C(NC)C3O)C2O)O1 (centres unmarked) — survival (Acinetobacter baumannii; 19606, biofilm; 100 µg/mL, without HNP1): 0% and 1.04%
COc1ccc(-c2csc(NC(=O)c3ccc(C(=O)Nc4nc(-c5ccc(OC)c(OC)c5)cs4)s3)n2)cc1OC — IC50 (Tetrahymena pyriformis and Klebsiella pneumoniae; virulence in co-culture): 0.94 nM
COc1ccc(CCn2nnc3c2CCN(c2ccc(C(F)(F)F)cc2)C3)cc1 — EC50 (human adenovirus 2; viral replication; HEL): > 100000 nM
CCOC(=O)/C(=N\NC(N)=S)c1cccs1 — IC50 (Tetrahymena pyriformis and Klebsiella pneumoniae; virulence in co-culture): 1590 nM
Cn1c(=O)ccc2ccc(F)c(CCNC[C@H]3CN(c4cnc5c(n4)NC(=O)CO5)C(=O)O3)c21 — MIC90 (Salmonella sp.): 0.25 µg/mL (≈ 0.534 µM)
CC(C)CC1NC(=O)C(C(=O)NC(C(=O)NC2C(=O)N3C2SC(C)(C)C3C(=O)O)c2ccccc2)=C1O (centres unmarked) — MIC (Escherichia coli; broth microdilution; Keio mutant JW0587-1; 18 h, enterobactin-related gene): 25 µg/mL (≈ 47.1 µM)
CS(=O)(=O)CCCn1c(Cn2c(=O)n(CC(F)(F)F)c3ccncc32)cc2cc(Cl)ccc21 — LS mean viral load change (respiratory syncytial virus; RT-qPCR; hospitalized infants 1-24 months, nasal swab; oral, 1-9 mg/kg daily, day 14, all doses combined; relative to: baseline): -4.42 log10 copies/mL
CC[C@H](C)[C@H](NC(=O)[C@H](CC(C)C)NC(=O)[C@@H]1CCCN1C(=O)[C@@H](N)CC(C)C)C(=O)N[C@H](C(=O)N[C@@H](Cc1ccccc1)C(=O)N[C@@H](CC(C)C)C(=O)N[C@@H](CCCNC(=N)N)C(=O)N[C@@H](CC(N)=O)C(=O)N[C@@H](CCCNC(=N)N)C(=O)N[C@@H](CC(C)C)C(=O)N[C@@H](CCCCN)C(=O)N[C@@H](Cc1ccc(O)cc1)C(=O)O)[C@@H](C)CC — MBC (Staphylococcus haemolyticus): 64 µg/mL (≈ 38.6 µM)
O=[N+]([O-])c1ccc(C2=[N+]([O-])c3ccccc3N3CCN=C23)cc1 — MIC50 (Prevotella spp.; bacterial growth): ≤ 0.06 µg/mL
Cc1c2c(nn1C)CSCc1cc(n(C)n1)CSc1cc(c3ccccc3c1)OCCCc1c(C(=O)O)n(C)c3c-2c(Cl)ccc13 — downregulation (Staphylococcus aureus; label-free quantitative proteomics, measured: Hld protein; SA113; 3.125 µM; relative to: DMSO): 5.24 fold
CC[C@H](C)[C@H](NC(=O)[C@H](C)NC(=O)[C@H](CCCCN)NC(=O)[C@H](CC(C)C)NC(=O)[C@H](C)NC(=O)[C@@H](NC(=O)[C@H](Cc1c[nH]cn1)NC(=O)[C@H](CC(C)C)NC(=O)[C@@H](NC(=O)[C@@H](NC(=O)[C@H](CCCCN)NC(=O)[C@H](C)NC(=O)[C@H](C)NC(=O)[C@H](CO)NC(=O)[C@H](CCCCN)NC(=O)[C@H](Cc1ccccc1)NC(=O)[C@@H](NC(=O)[C@H](CCCCN)NC(=O)[C@H](CC(C)C)NC(=O)[C@H](Cc1ccccc1)NC(=O)[C@H](CO)NC(=O)[C@H](CCCCN)NC(=O)[C@H](Cc1c[nH]c2ccccc12)NC(=O)[C@H](CCCCN)NC(C)=O)[C@@H](C)O)[C@@H](C)O)C(C)C)[C@@H](C)O)C(=O)N[C@@H](CO)C(=O)N[C@@H](CO)C(N)=O — MIC90 (Enterococcus faecalis; ATCC 29212): 32 µg/mL (≈ 10.9 µM)
Cc1ccc(Cn2c(N3CCC(C(=O)NCc4cccs4)CC3)nc3ccccc32)cc1 — inhibition (Plasmodium yoelii; oxygen consumption; 17XL; 2 µM): 46%
Nc1ncnc2c1ncn2[C@@H]1O[C@@H]2COP(=O)(O)O[C@H]3[C@@H](O)[C@H](n4cnc5c(=O)[nH]cnc54)O[C@@H]3COP(=O)(O)O[C@H]2[C@H]1O — fold enrichment (West Nile virus; RNA sequencing Reactome analysis, measured: G1/S Transition (R-HSA-69206); HFF-1; concentration not given, upregulated pathways, added: West Nile virus infection; relative to: WNV-infected without compound): 3.07
CC(C)Cc1ccc([C@@H](C)[C@H](O)CC(C)C)cc1 (racemic) — inhibition (Lactobacillus acidophilus; cell survival; 100 µM, 24 h; relative to: DMSO): 34%
COC1=CC(c2ccc[nH]2)=N/C1=C\c1[nH]c(Cc2ccccc2)cc1Cc1ccccc1.Cl — ED90 (Plasmodium yoelii; parasitaemia; mouse; 4-day treatment, parasitaemia day 5): 7.81 mg/kg/day
COc1cccc(C(=O)NN(C(=O)c2cc(C)cc(C)c2)C(C)(C)C)c1C — adult lifespan (Anopheles gambiae s.l.; pyrethroid-resistant; topical, 0.4 %; relative to: control): decreased
Cc1[nH]c(/C=C2\N=C(c3ccc[nH]3)C=C2OC(C)C)cc1Cc1ccc(OC(F)(F)F)cc1.Cl — parasitaemia reduction (Plasmodium yoelii; CF1 mice; oral, 25 mg/kg daily for 4 days, day 5; relative to: vehicle): 100%
CCOC(=O)C1(Cc2ccccc2)CN(c2ccccc2)Cc2nnn(CCc3cc4ccccc4[nH]3)c21 (centres unmarked) — EC50 (human adenovirus 2; viral replication; HEL): > 100000 nM
COC(=O)c1ccc2c(ccc3oc([N+](=O)[O-])cc32)c1 — MIC90 (Mycolicibacterium aurum; REMA; ATCC 23366): 1 µg/mL (≈ 3.69 µM)
Cc1ncc([N+](=O)[O-])n1CCO — MIC50 (Parabacteroides distasonis and Bacteroides spp.; bacterial growth): 1 µg/mL (≈ 5.84 µM)
CC[C@H](C)C[C@H](C)CCCCCCCCC(=O)N[C@H]1C[C@@H](O)[C@@H](NCCN)NC(=O)[C@@H]2[C@@H](O)CCN2C(=O)[C@H]([C@H](O)CCN)NC(=O)[C@H]([C@H](O)[C@@H](O)c2ccc(O)cc2)NC(=O)[C@@H]2C[C@@H](O)CN2C(=O)[C@H]([C@@H](C)O)NC1=O — MFC (Kluyveromyces marxianus; broth dilution; ATCC 204093; 48 h, 37 °C): 0.25 µg/mL (≈ 0.229 µM)
COC(=O)N[C@H](C(=O)N1CCC[C@H]1c1ncc(-c2ccc(-c3ccc(-c4cnc([C@@H]5CCCN5C(=O)[C@@H](NC(=O)OC)C(C)C)[nH]4)cc3)cc2)[nH]1)C(C)C — combination index (Hepatitis C virus; replicon cells; 50% effect level, added: NS5B palm site II inhibitor, ratio 1:1): 1.06
COCCCNC(=N)c1ccc(NC(=O)c2ccc(C(=O)Nc3ccc(C(=N)NCCCOC)cc3)cc2)cc1 — IC50 (Tetrahymena pyriformis and Klebsiella pneumoniae; virulence in co-culture): 1210 nM
CCCCCC[C@H]1C(=O)O[C@H](C)[C@H](NC(=O)c2cccc(NC=O)c2O)C(=O)O[C@@H](C)[C@@H]1OC(=O)CC(C)C — viral replication (bovine herpesvirus 1; inhibitor; MDBK cells, wild type; concentration not given, 8 h): inhibited
CN(C)[C@@H]1C(O)=C(C(N)=O)C(=O)[C@@]2(O)C(O)=C3C(=O)c4c(O)cccc4[C@@](C)(O)[C@H]3C[C@@H]12 — survival (Acinetobacter baumannii; 19606, biofilm; 3.125 µg/mL, without HNP1): 87.2% and 95.2% and 91.8% and 80% and 82.3% and 102%
O=C(C[n+]1cc(-c2ccc(Cl)cc2)n2c1CCC2)Nc1ccc(Cl)c(Cl)c1 — IC50 (Tetrahymena pyriformis and Klebsiella pneumoniae; virulence in co-culture): 10000 nM
CC1(C)SC2C(NC(=O)C(NC(=O)C3=C(O)C4(CC4)NC3=O)c3ccccc3)C(=O)N2C1C(=O)O (centres unmarked) — MIC (Escherichia coli; broth microdilution; Keio mutant JW0146-2; 18 h, ferric hydroxamate uptake gene): 50 µg/mL (≈ 99.9 µM)
COC1=CC(c2ccc[nH]2)=N/C1=C\c1cc(Cc2ccc(C(F)(F)F)cc2)c(C)[nH]1.Cl — parasitaemia reduction (Plasmodium yoelii; CF1 mice; oral, 10 mg/kg daily for 4 days, day 5; relative to: vehicle): 100%
CCCCc1c([N+](=O)[O-])oc2ccc3ccccc3c12 — MIC90 (Mycolicibacterium aurum; REMA; ATCC 23366): 2 µg/mL (≈ 7.43 µM)
O=C(O)c1cccc2ccccc12 — IC50 (Tetrahymena pyriformis and Klebsiella pneumoniae; virulence in co-culture): 2500 nM
CCCCCCCCCCCc1c([N+](=O)[O-])oc2ccc3ccccc3c12 — MIC90 (Klebsiella aerogenes; REMA): > 32 µg/mL
COC1=CC(c2ccc[nH]2)=N/C1=C\c1cc(Cc2ccc(Cl)cc2)c(C)[nH]1.Cl — parasitaemia reduction (Plasmodium yoelii; CF1 mice; oral, 25 mg/kg daily for 4 days, day 5; relative to: vehicle): 100%
O=[N+]([O-])c1cc2c(ccc3c4cc([N+](=O)[O-])oc4ccc23)o1 — MIC90 (Klebsiella aerogenes; REMA): > 32 µg/mL
Cc1nc(O)n2ncc(Cl)c2n1 — IC50 (Tetrahymena pyriformis and Klebsiella pneumoniae; virulence in co-culture): 740 nM
CNCCN(C)C(=O)Oc1c(Cl)c(C)nc(C)c1-c1ccc(Oc2ccc(OC(F)(F)F)cc2)cc1 — IC50 (Plasmodium yoelii; 17XL; 384-well): 269 ± 34 nM

A few entries again:
Cc1ncc([N+](=O)[O-])n1CCO — MIC50 (Parabacteroides distasonis and Bacteroides spp.; bacterial growth): 1 µg/mL (≈ 5.84 µM)
CC(C)CC1NC(=O)C(C(=O)NC(C(=O)NC2C(=O)N3C2SC(C)(C)C3C(=O)O)c2ccccc2)=C1O (centres unmarked) — MIC (Escherichia coli; broth microdilution; Keio mutant JW0587-1; 18 h, enterobactin-related gene): 25 µg/mL (≈ 47.1 µM)
COC(=O)N[C@H](C(=O)N1CCC[C@H]1c1ncc(-c2ccc(-c3ccc(-c4cnc([C@@H]5CCCN5C(=O)[C@@H](NC(=O)OC)C(C)C)[nH]4)cc3)cc2)[nH]1)C(C)C — combination index (Hepatitis C virus; replicon cells; 50% effect level, added: NS5B palm site II inhibitor, ratio 1:1): 1.06
CNC(C)C1CCC(N)C(OC2C(N)CC(N)C(OC3OCC(C)(O)C(NC)C3O)C2O)O1 (centres unmarked) — survival (Acinetobacter baumannii; 19606, biofilm; 100 µg/mL, without HNP1): 0% and 1.04%
